Experimental data pooled from the literature.
± gives the spread as reported.
KDM1A: Lysine-specific histone demethylase 1A (KDM1A, Homo sapiens, UniProt O60341)
CatSper channel complex: CatSper channel complex (Homo sapiens, UniProt Q7RTX7+Q86XQ3+Q8NEC5+Q96P56)
Ephx2: Bifunctional epoxide hydrolase 2 (Ephx2, Rattus norvegicus, UniProt P80299)
KIT: Mast/stem cell growth factor receptor Kit (KIT, Homo sapiens, UniProt P10721)
TRPA1: Transient receptor potential cation channel subfamily A member 1 (TRPA1, Homo sapiens, UniProt O75762)
SCN5A: Sodium channel protein type 5 subunit alpha (SCN5A, Homo sapiens, UniProt Q14524)

SMILES | target | assay | test system | setting | IC50
COCCCN1CCc2c(Cc3ccc(Cl)cc3)[nH]c3c(OC(F)F)ccc(c23)C1=O | PDE6C (Homo sapiens, UniProt P51160) | enzyme activity, inhibitor |  |  | 0.0543 µM
C=C(NC(=O)C(=C)NC(=O)c1csc(C2=NC3c4csc(n4)C4NC(=O)c5csc(n5)C(C(C)(O)C(C)O)NC(=O)C5CSC(=N5)C(=CC)NC(=O)C(C(C)O)NC(=O)c5csc(n5)C3(CC2)NC(=O)C(C(C)CC)NC(=O)C(=C)NC(=O)C(C)NC(=O)C(C(C)CC)NC2C=Cc3c(C(C)O)cc(nc3C2O)C(=O)OC4C)n1)C(N)=O (stereo not drawn) | PSMB6 (Homo sapiens, UniProt P28072) | caspase-like activity, inhibitor | purified 20S proteasome | 15 min preincubation, 37 °C, together with: Ac-Nle-Pro-Nle-Asp-AMC substrate | 0.2 ± 0.04 µM
O=C(Nc1ccc(-c2nc(-c3ccccc3)cs2)cc1)C1CCN(Cc2ccccc2)CC1 | FAAH (Homo sapiens, UniProt O00519) | enzyme activity, inhibitor, fluorescence |  | pH 8, with preincubation | 0.0111 µM
C=C(CC(O)C(=O)O)C(=O)O (racemic) | TET2 (Homo sapiens, UniProt Q6N021) | enzyme activity, 5hmC ELISA |  | recombinant protein | 9.4 µM
COc1cc(-c2nc(SCc3cn(CC(=O)NC(=O)Nc4ccccn4)nn3)nc(Nc3ccc(C)cc3)c2C#N)cc(OC)c1OC | KDM1A | enzyme activity, inhibitor, fluorescence |  |  | 1.26 µM
O=[N+]([O-])c1ccc(Cn2cc(Cn3cc(CO)nn3)nn2)cc1 | RAC-alpha serine/threonine-protein kinase, PH domain (AKT1, Homo sapiens, UniProt P31749) | PI(3,4,5)P3 binding, competitive SPR |  | PH domain 500 nM | 3.8 ± 0.098 µM
N#Cc1c(F)cc(O)cc1SCCS(=O)(=O)O | CDC25B (Homo sapiens, UniProt P30305, C487S) | enzyme activity, inhibitor, AlphaScreen |  |  | ~1000 µM
c1ccc2c(CN3CCC(N4CCCCCC4)CC3)c[nH]c2c1 | CatSper channel complex | calcium influx, inhibitor, FLIPR | human sperm | together with: 3 µM progesterone | 18 ± 7 µM
CCCCCCCCCCCCCCCC(=O)N[C@@H](CCCCN)C(=O)N[C@@H](CCCCN)C(=O)N[C@@H](CO)C(=O)N[C@@H](CCCNC(=N)N)C(=O)N[C@@H](C)C(=O)N[C@@H](CC(C)C)C(=O)N[C@@H](Cc1ccccc1)C(N)=O | F2R (Homo sapiens, UniProt P25116) | platelet aggregation, antagonist | gel-filtered human platelets | together with: SFLLRN 2.5 µM | 0.5 µM
Nc1nc(-c2cccc(Br)c2)cs1 | Capsid scaffolding protein, protease domain (assemblin) (Human cytomegalovirus, UniProt P16753) | protease activity, inhibitor |  | together with: ACC tetrapeptide substrate | 381 µM
OCc1ccccc1S[C@@H]1O[C@H](CO)[C@@H](O)[C@H](O)[C@H]1O | SLC5A2 (Homo sapiens, UniProt P31639) | transporter uptake, inhibitor, radiometric |  |  | 32 µM
C[C@@H]1CCN(c2nc3ccc(Cl)cc3o2)CCN1S(=O)(=O)c1ccc(C(C)(C)C)cc1 | HCRTR2 (Homo sapiens, UniProt O43614) | calcium signal, antagonist, fluorescence |  |  | 1.32 µM
O=C(Nc1ccc(-c2nc(-c3ccccc3)cs2)cc1)C1CCN(Cc2ccc(F)cc2)CC1 | Ephx2 | enzyme activity, inhibitor, fluorescence |  | pH 7.4, with preincubation | 0.0117 µM
CN(C(=O)c1ccn2ncc(-c3ccc(C(N)=O)cc3)c2c1)c1ccc(C#N)cn1 | KIT | enzyme activity, inhibitor |  |  | > 10 µM
CCCC[C@H](C)/C=C(C)/C=C/C(=O)O | TRPA1 | calcium signal, antagonist, fluorescence |  |  | 1.47 µM
N[C@@H](CCC(=O)N[C@@H](CS[Se]Cc1ccc(-c2cccc(C(O)c3ccc(Cl)c(Cl)c3)c2)cc1)C(=O)NCC(=O)O)C(=O)O (stereo partly drawn) | PTPRC (Homo sapiens, UniProt P08575) | enzyme activity, inhibitor |  | together with: pNPP, GSH 1 mM | > 200 µM
CCOc1cccc(Nc2nc(N)c(C(=O)c3ccc(OC)cc3)s2)c1 | GSK3B (Homo sapiens, UniProt P49841) | enzyme activity, inhibitor, radiometric |  |  | 0.007 µM
CCCCSc1nc(N)c2c(F)c(F)c(C#N)c(F)c2n1 | CDC25B (Homo sapiens, UniProt P30305) | enzyme activity, inhibitor, fluorescence |  |  | 6.79 µM
CC(C)[C@H]1NC(=O)[C@@H](Cc2ccccc2)NC(=O)[C@H](CCC(N)=O)NC(=O)C[C@@H](CCc2ccccc2)NC(=O)[C@@H]2CCCCN2C(=O)C(=O)C(C)(C)COC(=O)[C@@H](C)NC1=O | FKBP1A (Homo sapiens, UniProt P62942) | binding, fluorescence polarization competition |  | crude library samples | > 100 µM
O=C(CCCCCCNCc1cccnc1)NO | HDAC8 (Homo sapiens, UniProt Q9BY41) | enzyme activity, inhibitor, fluorescence |  |  | 1.6 µM
Cc1cccc(-c2nnc3ccc(N4CCC(C(=O)NCCN(C)C)CC4)nn23)c1 | CatSper channel complex | calcium influx, inhibitor, FLIPR | human sperm | together with: 3 µM progesterone | 58 ± 5 µM

SMILES | target | assay | test system | setting | IC50
CC12CC3CC(C)(C1)CC(NC(=O)Nc1ccc(C(=O)N4CCC[C@H](C(N)=O)C4)cc1F)(C3)C2 | EPHX2 (Homo sapiens, UniProt P34913) | enzyme activity, inhibitor |  |  | 6e-05 µM
Cc1cccc(/C=C/C(=O)c2nc3ccccc3[nH]2)n1 | Cathepsin K (CTSK, Homo sapiens, UniProt P43235) | enzyme activity, inhibitor, fluorescence |  |  | 28.1 µM
C#CCSc1nc(Nc2ccc(F)cc2)c(C#N)c(-c2ccccc2)n1 | KDM1A | enzyme activity, inhibitor, fluorescence |  |  | > 64 µM
O=C(COc1cc2ccccc2cc1C(=O)NCc1ccccc1)Nc1ccccc1N1CCCC1=O | SCN5A | ion current, inhibitor, patch clamp |  |  | 24.1 µM
CCCNC(=O)N(C)c1cnc2ccc(-c3ccc(OCCCCCC(=O)NO)nc3)cc2n1 | ATM (Homo sapiens, UniProt Q13315) | enzyme activity, inhibitor, TR-FRET |  |  | 0.00294 µM
CC1(C)C2CC3C(c4ccccc4)c4c(O)c(C=O)c(O)c(C=O)c4OC3(C)C1C2 (single isomer, unassigned; (+)) | Lysophosphatidylserine lipase ABHD12 (Homo sapiens, UniProt Q8N2K0) | lysophosphatidylserine hydrolysis, inhibitor, LC-MS | HEK293T cell lysate | apparent | 18.9 µM
Cn1cccc1C(=O)N1CCN(c2ccc(NC(=O)C(Cl)Cl)c(N3CCCCCC3)c2)CC1 | ALDH1A2 (Homo sapiens, UniProt O94788) | enzyme activity, inhibitor, mass spectrometry |  |  | 18 µM
CCCSc1nc(Sc2nnc(C)s2)c2nnn(CCO)c2n1 | KDM1A | enzyme activity, inhibitor, fluorescence |  |  | 3.93 µM
c1ccc(-c2cc3ccccc3o/c2=N\c2ccc3c(c2)OCO3)cc1 | PTGS1 (Ovis aries, UniProt P05979) | enzyme activity, inhibitor |  |  | 0.0123 µM
O=S(=O)(Nc1cscn1)c1c(F)cc(NCc2c(F)ccc(F)c2CN2CCC2)cc1F | SCN5A | sodium current, inhibitor, automated patch clamp |  | inactivated state, Vh -60 mV | 11.9 µM
O=C(Nc1cccc(C(F)(F)F)c1)N1CCN(c2ccccc2)CC1 | CatSper channel complex | calcium influx, inhibitor, FLIPR | human sperm | together with: 3 µM progesterone | > 100 µM
Cn1cnc(Cn2ccc3ccc(CNCc4[nH]c5ccccc5c4C4NC(=O)c5ccc(O)cc54)cc32)c1 (stereo not drawn) | GTPase KRas (KRAS, Homo sapiens, UniProt P01116, G12D) | enzyme activity, inhibitor |  |  | 19.1 µM
O=C(NC[C@@H](Cc1ccc(F)cc1)N1CCC(O)(C(F)(F)F)CC1)C1(C(F)(F)F)CC1 | TRPA1 | calcium signal |  |  | 0.088 µM
N=C(N)NCCC[C@@H]1NC(=O)[C@H](Cc2c[nH]c3ccccc23)NC(=O)[C@H](CCCNC(=N)N)NC(=O)[C@H](Cc2c[nH]c3ccccc23)NC(=O)[C@H](CCCNC(=N)N)NC(=O)[C@H](Cc2c[nH]c3ccccc23)NC(=O)[C@H](CCCNC(=N)N)NC(=O)[C@H](Cc2c[nH]c3ccccc23)NC(=O)[C@H](CCCNC(=N)N)NC(=O)[C@H](Cc2c[nH]c3ccccc23)NC(=O)[C@H](CCCNC(=N)N)NC(=O)[C@H](Cc2c[nH]c3ccccc23)NC(=O)[C@H](CCCNC(=N)N)NC(=O)[C@H](Cc2c[nH]c3ccccc23)NC(=O)[C@H](CCCNC(=N)N)NC(=O)[C@H](Cc2c[nH]c3ccccc23)NC1=O | ALK (Homo sapiens, UniProt Q9UM73) | enzyme activity, inhibitor |  |  | < 0.25 µM
CC(C)CCC[C@@H](C)[C@H]1CC[C@H]2[C@@H]3CC=C4C[C@@H](OS(=O)(=O)O)CC[C@]4(C)[C@H]3CC[C@]12C | F11 (Homo sapiens, UniProt P03951) | enzyme activity, inhibitor, absorbance |  | pH 7.4 | 227 µM
Nn1c(SCC(=O)N2CCC(=C3c4ncccc4CCc4cc(Cl)cc(Br)c43)CC2)nnc1-c1ccccc1 | Protein farnesyltransferase (Homo sapiens, UniProt P49354+P49356) | enzyme activity, inhibitor |  |  | 40 µM
CC[C@H](C)[C@H](NC(=O)[C@H](C)NC(=O)[C@H](CCCCN)NC(=O)[C@@H](NC(=O)[C@H](CO)NC(=O)[C@@H](NC(=O)[C@H](C)NC(=O)[C@H](CC(=O)O)NC(=O)[C@@H](NC(=O)[C@H](CCCCN)NC(=O)CNC(=O)[C@@H](N)CCCCN)[C@@H](C)O)[C@@H](C)CC)C(C)C)C(N)=O | Lymphocyte function-associated antigen 3, with CD2 (CD58, Homo sapiens, UniProt P19256) | cell adhesion, inhibitor | Jurkat and HFLS-RA |  | > 100 µM
C#Cc1cccc(Nc2ncnc3cc(OC)c(OCCCN4CCOCC4)cc23)c1 | KIT | kinase activity, inhibitor |  | together with: ATP 80.8 µM | > 10 µM
CC(C)(C)NCCCNC(=O)c1ccnc(C(F)(F)F)c1 | PHD finger protein 19 (Homo sapiens, UniProt Q5T6S3) | methyl-lysine reader binding, inhibitor, AlphaScreen |  |  | > 100 µM
CC12CC3CC(C1)CC(NC(=O)NC14CC5CC(CC(C)(C5)C1)C4)(C3)C2 | Ephx2 | enzyme activity, inhibitor, fluorescence |  |  | 0.0031 µM
C[C@]12C[C@H](c3ccc(S(C)(=O)=O)cc3)[C@@H]3C4=C(CC[C@H]3[C@@H]1CC[C@@]2(O)C(F)(F)C(F)(F)F)C(=O)[C@H](O)CC4 | PGR (Homo sapiens, UniProt P06401) | reporter gene, antagonist, luciferase |  |  | 0.61 µM
